# Measured values from different studies.
# Every numbered part comes from another study and shows a few of its results, in no order.
# Chain of UniProt Q99759 (whole entry, looked up): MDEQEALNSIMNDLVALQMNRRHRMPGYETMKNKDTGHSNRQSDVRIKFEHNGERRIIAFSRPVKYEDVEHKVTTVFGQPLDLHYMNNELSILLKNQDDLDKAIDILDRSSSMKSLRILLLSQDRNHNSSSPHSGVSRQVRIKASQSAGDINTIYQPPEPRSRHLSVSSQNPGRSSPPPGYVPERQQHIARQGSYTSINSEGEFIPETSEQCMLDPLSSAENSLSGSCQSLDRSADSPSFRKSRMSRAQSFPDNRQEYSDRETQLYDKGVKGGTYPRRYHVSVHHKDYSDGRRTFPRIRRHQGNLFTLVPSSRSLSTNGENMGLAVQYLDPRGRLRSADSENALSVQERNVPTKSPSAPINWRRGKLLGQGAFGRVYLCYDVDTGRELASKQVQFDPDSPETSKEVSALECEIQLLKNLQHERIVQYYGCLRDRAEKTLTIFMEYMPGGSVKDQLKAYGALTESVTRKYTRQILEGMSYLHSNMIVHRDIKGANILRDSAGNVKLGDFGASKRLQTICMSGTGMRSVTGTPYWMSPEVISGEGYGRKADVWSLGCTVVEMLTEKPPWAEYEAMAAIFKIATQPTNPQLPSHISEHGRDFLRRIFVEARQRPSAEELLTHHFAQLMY
# Chain of UniProt O14920 (whole entry, looked up): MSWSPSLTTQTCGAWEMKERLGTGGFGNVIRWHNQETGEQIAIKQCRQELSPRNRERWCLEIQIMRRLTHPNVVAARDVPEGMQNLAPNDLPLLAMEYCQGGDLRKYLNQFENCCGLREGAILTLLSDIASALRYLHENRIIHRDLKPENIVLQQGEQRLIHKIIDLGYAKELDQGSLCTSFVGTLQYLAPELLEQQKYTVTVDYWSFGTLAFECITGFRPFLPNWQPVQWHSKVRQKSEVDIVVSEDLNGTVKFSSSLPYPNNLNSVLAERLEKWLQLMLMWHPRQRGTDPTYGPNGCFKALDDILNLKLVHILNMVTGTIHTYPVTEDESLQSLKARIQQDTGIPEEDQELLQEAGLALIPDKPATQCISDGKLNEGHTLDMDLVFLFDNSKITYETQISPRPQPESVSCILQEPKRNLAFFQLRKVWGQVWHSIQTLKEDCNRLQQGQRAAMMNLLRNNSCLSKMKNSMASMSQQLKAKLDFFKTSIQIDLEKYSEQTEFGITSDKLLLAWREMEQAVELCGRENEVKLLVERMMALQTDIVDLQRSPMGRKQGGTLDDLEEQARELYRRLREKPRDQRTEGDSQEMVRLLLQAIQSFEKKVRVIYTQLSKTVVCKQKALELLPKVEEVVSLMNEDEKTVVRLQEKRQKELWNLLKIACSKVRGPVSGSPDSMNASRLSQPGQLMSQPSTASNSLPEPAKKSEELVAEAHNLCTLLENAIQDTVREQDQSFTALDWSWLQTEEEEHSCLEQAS
# Chain of UniProt P51955 (whole entry, looked up): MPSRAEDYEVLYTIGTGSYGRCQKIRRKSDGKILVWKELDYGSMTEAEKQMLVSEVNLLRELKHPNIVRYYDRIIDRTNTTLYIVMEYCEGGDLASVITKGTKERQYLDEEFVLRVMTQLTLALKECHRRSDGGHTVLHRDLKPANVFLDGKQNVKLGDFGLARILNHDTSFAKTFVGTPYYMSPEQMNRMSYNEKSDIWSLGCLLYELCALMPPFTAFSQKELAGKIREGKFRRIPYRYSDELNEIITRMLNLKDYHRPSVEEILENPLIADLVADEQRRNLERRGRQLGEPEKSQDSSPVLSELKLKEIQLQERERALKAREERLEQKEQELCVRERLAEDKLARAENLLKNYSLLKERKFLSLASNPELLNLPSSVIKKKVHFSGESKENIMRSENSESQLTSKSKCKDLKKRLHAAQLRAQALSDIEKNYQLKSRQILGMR
# Chain of UniProt P68400 (whole entry, looked up): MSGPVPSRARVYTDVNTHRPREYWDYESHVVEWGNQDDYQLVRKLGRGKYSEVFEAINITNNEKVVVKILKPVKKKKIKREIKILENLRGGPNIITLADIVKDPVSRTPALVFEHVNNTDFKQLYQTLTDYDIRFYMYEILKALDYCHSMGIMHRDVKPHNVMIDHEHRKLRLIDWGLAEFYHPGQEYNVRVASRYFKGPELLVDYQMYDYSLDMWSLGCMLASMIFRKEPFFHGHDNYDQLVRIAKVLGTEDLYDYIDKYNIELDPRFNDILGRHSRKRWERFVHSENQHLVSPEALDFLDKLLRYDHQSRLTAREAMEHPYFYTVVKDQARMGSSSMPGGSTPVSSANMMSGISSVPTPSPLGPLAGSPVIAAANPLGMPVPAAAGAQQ
# Chain of UniProt O00141 (whole entry, looked up): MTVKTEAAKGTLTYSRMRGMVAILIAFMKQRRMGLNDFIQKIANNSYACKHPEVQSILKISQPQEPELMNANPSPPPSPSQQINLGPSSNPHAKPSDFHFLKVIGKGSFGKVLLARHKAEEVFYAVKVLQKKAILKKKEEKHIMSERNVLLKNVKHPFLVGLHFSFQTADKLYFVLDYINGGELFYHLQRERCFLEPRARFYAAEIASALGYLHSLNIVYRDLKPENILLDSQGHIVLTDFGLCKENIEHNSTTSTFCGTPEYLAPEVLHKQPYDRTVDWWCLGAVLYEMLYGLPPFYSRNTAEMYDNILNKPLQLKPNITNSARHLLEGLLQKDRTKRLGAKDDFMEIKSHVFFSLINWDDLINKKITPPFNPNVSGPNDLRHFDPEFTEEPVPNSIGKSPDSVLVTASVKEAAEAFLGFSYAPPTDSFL
# Chain of UniProt P07333 (whole entry, looked up): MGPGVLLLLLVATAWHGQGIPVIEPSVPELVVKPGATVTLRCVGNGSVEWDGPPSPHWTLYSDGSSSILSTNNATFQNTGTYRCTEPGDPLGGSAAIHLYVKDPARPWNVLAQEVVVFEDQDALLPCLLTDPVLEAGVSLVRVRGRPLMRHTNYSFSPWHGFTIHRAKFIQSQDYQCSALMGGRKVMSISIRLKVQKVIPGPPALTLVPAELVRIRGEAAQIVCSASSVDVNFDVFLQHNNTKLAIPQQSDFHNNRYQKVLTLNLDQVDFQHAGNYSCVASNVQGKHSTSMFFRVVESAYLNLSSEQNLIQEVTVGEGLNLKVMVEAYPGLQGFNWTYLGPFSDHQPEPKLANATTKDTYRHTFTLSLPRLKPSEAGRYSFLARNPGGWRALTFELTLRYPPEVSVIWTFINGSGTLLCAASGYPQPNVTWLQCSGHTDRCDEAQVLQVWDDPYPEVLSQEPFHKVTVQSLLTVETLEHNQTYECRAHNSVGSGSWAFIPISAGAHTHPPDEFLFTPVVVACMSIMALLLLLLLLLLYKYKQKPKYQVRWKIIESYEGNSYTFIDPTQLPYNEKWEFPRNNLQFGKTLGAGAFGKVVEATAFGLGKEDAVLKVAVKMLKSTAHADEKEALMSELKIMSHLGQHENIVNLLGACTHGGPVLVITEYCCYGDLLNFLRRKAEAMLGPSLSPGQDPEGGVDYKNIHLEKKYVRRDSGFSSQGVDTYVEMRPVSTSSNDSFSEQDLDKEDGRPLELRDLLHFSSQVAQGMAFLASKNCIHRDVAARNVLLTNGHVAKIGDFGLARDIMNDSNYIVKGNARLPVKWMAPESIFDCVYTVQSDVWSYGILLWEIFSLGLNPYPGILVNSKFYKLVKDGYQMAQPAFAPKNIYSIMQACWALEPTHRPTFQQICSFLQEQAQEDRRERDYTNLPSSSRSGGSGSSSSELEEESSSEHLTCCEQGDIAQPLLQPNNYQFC
# Chain of UniProt Q9Y616 (whole entry, looked up): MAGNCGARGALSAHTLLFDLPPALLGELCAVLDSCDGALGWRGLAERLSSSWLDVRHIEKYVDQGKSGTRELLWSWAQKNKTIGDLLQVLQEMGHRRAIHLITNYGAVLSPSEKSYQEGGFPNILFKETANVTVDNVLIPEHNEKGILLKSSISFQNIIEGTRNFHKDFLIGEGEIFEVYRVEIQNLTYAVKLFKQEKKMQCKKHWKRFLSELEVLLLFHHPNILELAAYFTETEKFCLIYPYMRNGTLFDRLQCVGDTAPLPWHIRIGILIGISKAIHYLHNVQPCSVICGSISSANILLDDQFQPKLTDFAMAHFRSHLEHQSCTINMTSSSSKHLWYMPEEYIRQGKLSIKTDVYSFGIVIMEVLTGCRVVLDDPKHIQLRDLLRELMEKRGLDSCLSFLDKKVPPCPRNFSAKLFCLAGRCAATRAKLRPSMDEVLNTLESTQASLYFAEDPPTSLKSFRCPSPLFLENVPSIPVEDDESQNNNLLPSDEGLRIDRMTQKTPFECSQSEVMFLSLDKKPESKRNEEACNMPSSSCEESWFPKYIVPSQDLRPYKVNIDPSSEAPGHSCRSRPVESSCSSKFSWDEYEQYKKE
# Chain of UniProt Q8N568 (whole entry, looked up): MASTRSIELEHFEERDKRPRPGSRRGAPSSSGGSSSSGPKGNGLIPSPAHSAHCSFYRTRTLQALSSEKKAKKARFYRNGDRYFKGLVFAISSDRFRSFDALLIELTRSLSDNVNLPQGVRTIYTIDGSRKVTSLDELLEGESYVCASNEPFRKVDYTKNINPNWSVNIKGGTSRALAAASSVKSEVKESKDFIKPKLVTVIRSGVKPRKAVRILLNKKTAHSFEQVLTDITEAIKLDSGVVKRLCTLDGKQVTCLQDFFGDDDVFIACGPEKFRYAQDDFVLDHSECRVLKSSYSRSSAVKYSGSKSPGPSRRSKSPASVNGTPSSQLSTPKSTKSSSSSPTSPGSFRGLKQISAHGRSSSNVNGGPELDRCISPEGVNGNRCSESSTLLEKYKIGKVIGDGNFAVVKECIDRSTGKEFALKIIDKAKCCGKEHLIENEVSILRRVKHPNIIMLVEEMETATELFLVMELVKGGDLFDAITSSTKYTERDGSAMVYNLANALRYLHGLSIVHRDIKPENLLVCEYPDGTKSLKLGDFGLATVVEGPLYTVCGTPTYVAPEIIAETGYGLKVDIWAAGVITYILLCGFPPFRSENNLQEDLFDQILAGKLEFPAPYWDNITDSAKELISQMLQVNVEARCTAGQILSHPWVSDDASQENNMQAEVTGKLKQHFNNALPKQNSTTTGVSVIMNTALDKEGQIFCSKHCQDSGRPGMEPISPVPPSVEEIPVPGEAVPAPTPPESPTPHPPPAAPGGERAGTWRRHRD

# Series 1
# Compound: CC(C)n1cnc(-c2ccc(F)cc2)c1-c1ncc(C(=O)Nc2ccc(N3CCN(C)CC3)cc2)[nH]1
# Method: phase 2a trial
# Species: idiopathic pulmonary fibrosis patients
setting,patients with ALT increased
"30 mg once daily, adverse event grade 5",0%
"dose not given, grade 2, arms pooled",2%
"dose not given, grade 3, arms pooled",1%
"30 mg once daily, adverse event grade 1",1%
"dose not given, adverse event grade 5, all dose arms pooled",0%

# Series 2
# Species: human
# Matrix: microsomes or S9
# Tested at: 2 µM
# Time: 0.5 h
SMILES,remaining compound [%]
Cc1cc(C(=O)O)nn1-c1ccc(S(C)(=O)=O)cc1,63.8
COc1ccc(/C=C/c2cc(OC)cc3oc(-c4ccc(OC)cc4)c(-c4cc(OC)cc(OC)c4)c23)cc1,80
COc1ccc(N2C(=O)/C(=C\NN(C)C)c3ccccc3C2=O)cc1,91.5

# Series 3
# Cell line: mouse MPNST tumor cells
# Method: high-content nuclear imaging
# Measured: cell number
# Tested at: 10 µM
# Time: 12 h
# Setting: mean of 2 replicates
# Relative to: plate mean
# Direction: higher = more cells
SMILES,nuclei count [z-score]
Cc1ncc(-c2ccnc(Nc3ccc(S(C)(=O)=O)cc3)n2)n1C(C)C,-4.6
C=CCc1cccc(/C=N/NC(=O)CN2CCN(Cc3ccccc3)CC2)c1O,-4.66
CN1[C@@H]2CC[C@H]1C[C@@H](OC(c1ccccc1)c1ccccc1)C2,-0.237
CC1(C)CCC(C)(C)c2cc3cc(-c4cc(C(=O)O)cs4)ccc3cc21,-2.48

# Series 4
# SMILES: C[C@H](c1cccc(C#N)c1)n1cc(Cl)cc(C(N)=O)c1=N
# Read-out: cell-free assay
# Method: competition with immobilised ligand
# Tested at: 1 µM
target,remaining binding [%]
"ACVR1B (Homo sapiens, UniProt P36896)",100
"IKBKB (Homo sapiens, UniProt O14920)",100
"BMPR1A (Homo sapiens, UniProt P36894)",100
"MAPK12 (Homo sapiens, UniProt P53778)",100
"MUSK (Homo sapiens, UniProt O15146)",100
"DCLK2 (Homo sapiens, UniProt Q8N568)",88
"NEK2 (Homo sapiens, UniProt P51955)",100
"IRAK3 (Homo sapiens, UniProt Q9Y616)",99
"MAP3K3 (Homo sapiens, UniProt Q99759)",91
"CSF1R (Homo sapiens, UniProt P07333)",100
"PRKCQ (Homo sapiens, UniProt Q04759)",97
"PIP5K1C (Homo sapiens, UniProt O60331)",99
"HIPK3 (Homo sapiens, UniProt Q9H422)",81
"CSNK2A1 (Homo sapiens, UniProt P68400)",67
"SGK1 (Homo sapiens, UniProt O00141)",77
"MAPK7 (Homo sapiens, UniProt Q13164)",88

# Series 5
# Cell line: HaCaT
# Tested at: 100 µM
# Time: 36 h
Compound,viability [%]
C[N+](C)(C)CCOC(N)=O,89.5
OCCN1CCN(CCCN2c3ccccc3Sc3ccc(Cl)cc32)CC1,5.62
CN(C)/N=N/c1[nH]cnc1C(N)=O,73.4
O=c1cc[nH]c(=S)[nH]1,92
CCN(CCO)CCCC(C)Nc1ccnc2cc(Cl)ccc12 (stereo not drawn),5.2

# Excerpt of the above (series 1):
setting,patients with ALT increased
"30 mg once daily, adverse event grade 5",0%
"dose not given, grade 2, arms pooled",2%
"dose not given, grade 3, arms pooled",1%
"30 mg once daily, adverse event grade 1",1%
"dose not given, adverse event grade 5, all dose arms pooled",0%
